Measurements of several laboratories.
Compare with care: the assays were run in different laboratories. ± marks the error that the study gave.
Cell line: HepG2

Structure (SMILES) | test | test system | setting | measurement | value
CCCCCCCCCCCCCNCC(=O)N(CC(=O)N(CCCCN)CC(=O)N(CCN)CC(=O)N(CC(N)=O)Cc1ccccc1)Cc1ccccc1 | cytotoxicity, MTT | – | 72 h | TD50 | 145 ± 96 µg/mL
COC(=O)c1[nH]c(C(=O)OC)c2c1-c1c([nH]c3ccc(Cl)cc13)[C@@]21CN(C)c2ccc(Cl)cc21 (racemic) | cytotoxicity | – | – | CC50 | 49 ± 1.4 µM
COc1cc(C(=O)O)ccc1Cn1ccc2ccc(NC(=O)c3ccc(C(C)(C)C)cc3)cc21 | qPCR, measured: CYP7A1 | – | 10 µM, 12 h, FXR target gene | mRNA level | decreased
O=C(Cc1c(-c2ccccc2)n[nH]c1-c1ccccc1)NO | – | serum-free RPMI 1640 | 30 µM, 24 h, 1% DMSO | viability | 100%
CC1OC(CC(=O)O)Cc2c(O)c3c(c(O)c21)C(=O)C=C(C1=CC(=O)c2c(O)c4c(c(O)c2C1=O)CC(CC(=O)O)OC4C)C3=O (stereo not shown) | cell viability | – | 24 h, 37 °C | CC50 | 96.1 µM
CCCCCCCCCCCCCNCC(=O)N(CC(=O)N(CCCCN)CC(=O)N(CCN)CC(=O)N(CC(N)=O)Cc1ccc(Br)cc1)Cc1ccc(Br)cc1 | cytotoxicity, MTT | – | 72 h | TD50 | 72 ± 20 µg/mL
COC(=O)c1[nH]cc2c1[C@@]1(CN(C)c3ccc(Cl)cc31)c1[nH]c3ccccc3c1-2 (racemic) | cytotoxicity | – | – | CC50 | 49 ± 1 µM
CCCCCCCCCCCCCNCC(=O)N(CC(=O)N(CCCCN)CC(=O)N(CCN)CC(=O)N(CC(N)=O)CC(C)C)CC(C)C | cytotoxicity, MTT | – | 72 h | TD50 | 167 ± 75 µg/mL
COC(=O)c1[nH]cc2c1[C@]1(CN(C)c3ccc(Cl)cc31)c1[nH]c3ccc(Cl)cc3c1-2 (racemic) | cytotoxicity | – | – | CC50 | 37 ± 4.3 µM
CO[C@H]1C[C@@H]2CC[C@@H](C)[C@@](O)(O2)C(=O)C(=O)N2CCCC[C@H]2C(=O)O[C@H]([C@H](C)C[C@@H]2CC[C@@H](O)[C@H](OC)C2)CC(=O)[C@H](C)/C=C(\C)[C@@H](O)[C@@H](OC)C(=O)[C@H](C)C[C@H](C)/C=C/C=C/C=C/1C | cell viability | – | 24 h, 37 °C | CC50 | 67.2 µM

A few entries again:
Structure (SMILES) | test | test system | setting | measurement | value
CCCCCCCCCCCCCNCC(=O)N(CC(=O)N(CCCCN)CC(=O)N(CCN)CC(=O)N(CC(N)=O)Cc1ccccc1)Cc1ccccc1 | cytotoxicity, MTT | – | 72 h | TD50 | 145 ± 96 µg/mL
COC(=O)c1[nH]c(C(=O)OC)c2c1-c1c([nH]c3ccc(Cl)cc13)[C@@]21CN(C)c2ccc(Cl)cc21 (racemic) | cytotoxicity | – | – | CC50 | 49 ± 1.4 µM
